Published values pooled from the literature.
A part holds a random share of what one study measured.

Sample 1
Target: RNA binding protein fox-1 homolog 2, RRM domain, GST-SBP tag (RBFOX2, Homo sapiens, UniProt O43251-10, residues 100-194)
Method: RNA Bind-n-Seq
Form: RNA
Sample: in vitro
Tested at: 365 nM
Setting: natural RNA segment, single round, ends assumed
Relative to: no-protein control
Direction: higher = stronger binding
Target sequence (chain): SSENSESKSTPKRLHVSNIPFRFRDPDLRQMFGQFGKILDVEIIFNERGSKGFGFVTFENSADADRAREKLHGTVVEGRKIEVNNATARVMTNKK
Sequence	RBNS enrichment (R)
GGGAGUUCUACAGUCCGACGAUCCCCCAACAUCCAGAGGCCAGAAGAAUUGGCAGCUGCCUACUUAAGGAAGCUUGGGUUUGAAGCCUGCCCAGACUGGGCUGGGAGUGUUCUCAGAGUCUCAACACAGGAACUGGAAUUCUCGGGUGCCAA	0.269
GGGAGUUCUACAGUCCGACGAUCAGGAAGCUAGGAAAAGGAAAGUGAAGGAAUGGUCUAAAGAAAUGACCAUUCACACUGAUUUUGUCUGGACAGUCUGGCCGCAGGUUAUUCAUAGAUUAUUCAGCCUUUGCUGGAAUUCUCGGGUGCCAA	0.248
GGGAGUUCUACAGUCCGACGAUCACAAAUUCAUUCCCAGCCUAGGCUCUGGGCACAUUUCCUGUUCUUGAAUUCUGCUCCUGAAGAGGGUGAACAAAUGGGGCAUUCAAGUUGUGAGCUCAGAAUUACUUUAAUGGAAUUCUCGGGUGCCAA	0.825
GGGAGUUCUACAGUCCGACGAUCAUUGAAACUGUUCCUAUUUGCCCUGGGACGGUUUCUAUCUAUCAAAGGAAGGUUUUCACCUGUAGAAAGCCCCCUGCCUCCAGCCAAAUAGUCCCAUGCUGACUUUCUAUUGGAAUUCUCGGGUGCCAA	0.569
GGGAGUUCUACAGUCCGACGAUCCCUUUUAGGGGCUCAUUUAAAAAGAGAGCAAGCUAGAAAGAAAAAGAAAGGACUGUCCGUCUCCCUCUGUCUCCUCUCCCCCAAACCCAGCCUCCACCCGCACAAAGGGGUGGAAUUCUCGGGUGCCAA	0.67
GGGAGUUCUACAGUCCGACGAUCUCUGAGAGUCUUGUACUCACCUCUGAAAUUUAAAAACGUAUAAAGAGAGCCUGGGUUAAUCAGUUCUGCAGCCCCUACGUGACACUGUGCUAGUUCUCCUUCUUCUGUCUUGGAAUUCUCGGGUGCCAA	0.444
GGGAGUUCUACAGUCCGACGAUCGUCGGAGGCAUCAUGGAAAGACUGGGACAGCCCAGGAAACAAGGGGUCUGAGGAUGCAUUCGAGAUGGCAGAUUCCCACUGCCGCUGCCCGCUCAGCCCAGCUGUUGGGAUGGAAUUCUCGGGUGCCAA	1.91
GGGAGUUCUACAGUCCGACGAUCUGACCCCAGGGCCUGGACCUGCAGGAUCAGGUUAGGGCGAGCGCUACCUCUCCAGCCUCAGCUCUCAGUUGCAGCCCUGCUGCUGCCUGCCUGGACUUGGCCCCUGCCACUGGAAUUCUCGGGUGCCAA	0.314
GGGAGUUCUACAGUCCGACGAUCUCUCACUGAGCUCCUCGCCCCAAAUAUCCCGGUGCUGCCCCUGCUGUCCAGGCUCCAGUGUGACAAUGGGUUGAGUCUCCAGGCCCUGGCCAGGACAUCCUGCUAUCAAUUGGAAUUCUCGGGUGCCAA	0.359
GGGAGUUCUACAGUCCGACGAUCAUUUUCCUUUUAGGAGACACACAAUUAAGACUCUCUGGUUCUGUCCUUGCUUUGGAGACUUUAAGACAUUUCCUAAAGCACAAAUAAAAGCCUCGUAUUUCCCCAUUGAGUGGAAUUCUCGGGUGCCAA	0.236
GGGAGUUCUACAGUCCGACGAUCUUACUGUUGUUUAGAAAUUUGCAAGGGCUUCUUUUCCGCAAAUGCCACCAGCAGAUUAUAAUUUUGUCAGCAAUGCUAUUAUCUCUAAUUAGUGCCACCAGACUAGACCUUGGAAUUCUCGGGUGCCAA	0.333
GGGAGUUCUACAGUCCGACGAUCCUAUGCUCUUUAAUGGAGAAUCUGUUGUCGAAAGGAAGAUGGCCAGAAAUAAGAACUUCAGGACCACGUGGCUUUGCAUAUACAGAGCUUAACAAGCUUUGAGAAACUCAUGGAAUUCUCGGGUGCCAA	0.382

Sample 2
Target: Probable WRKY transcription factor 33, C-terminal DNA-binding domain (WRKY33, Arabidopsis thaliana, UniProt Q8S8P5, residues 346-449)
Method: DNA-protein interaction ELISA
Form: double-stranded DNA, one strand shown
Sample: in vitro, bacterial lysate
Tested at: not given
Setting: whole dsDNA probe, crude lysate protein
Relative to: highest signal in screen
Direction: higher = stronger binding
Residues (chain): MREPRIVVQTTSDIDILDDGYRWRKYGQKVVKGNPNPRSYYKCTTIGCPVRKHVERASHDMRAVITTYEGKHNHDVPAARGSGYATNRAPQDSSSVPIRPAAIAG
Sequence	relative absorbance
AAAAAAGGCCACGGTAACCCCTTTTGAAAA	35 % of maximum
AAAAAATGTTGTTGCTGTTGGTCCTAAAAA	33.7 % of maximum
AAAAAATTACTTCTCCCTTCCTTTGCAAAA	26.7 % of maximum
AAAAAACACTCACACCTATACGGCTCAAAA	49 % of maximum
AAAAAAAAATGCTAGCGCGTACGTAAAAAA	43.4 % of maximum
AAAAAAACAGCTCGGTGCCACTGTGGAAAA	45.1 % of maximum
AAAAAATGTCTTCTTACACCCTCTAGAAAA	33.9 % of maximum
AAAAAACATCGCTGTCGTTGACGTTGAAAA	99.6 % of maximum
AAAAAAATCATCCTATTGTTGCTGTCAAAA	34.1 % of maximum
AAAAAAATTCATGCTATTTAACCTTAAAAA	39.8 % of maximum
AAAAAATCGTAAATGCCCATAGCCGTAAAA	38.3 % of maximum
AAAAAATGGAAGGAGAGGGATGAAATAAAA	44.5 % of maximum
AAAAAAACTATAGTCTTTGTCATGATAAAA	34.3 % of maximum
AAAAAACCTTACCTCATCCCTATCCCAAAA	31.5 % of maximum
AAAAAAATGGTGCCGCTGAGCAAATTAAAA	36.1 % of maximum
AAAAAATTCTAACTTAGCCTATGTCCAAAA	57.9 % of maximum
AAAAAATATGTTTTCGCTTTATTCTTAAAA	31 % of maximum
AAAAAAGCATATCTTCAGAACTTGCCAAAA	33.9 % of maximum
AAAAAACCCGCCGTCGTGATTATCACAAAA	28.3 % of maximum
AAAAAAGGGTTTGTCGGGAATTGCCGAAAA	31.9 % of maximum

Sample 3
Target: RING finger protein unkempt homolog, zinc fingers 1-6, GST-SBP tag (UNK, Homo sapiens, UniProt Q9C0B0, residues 30-357)
Method: RNA Bind-n-Seq
Form: RNA
Sample: in vitro
Tested at: not given
Setting: RNA with constant flanks, human and mouse sites, ends assumed
Relative to: input RNA pool
Direction: higher = stronger binding
Residues (chain): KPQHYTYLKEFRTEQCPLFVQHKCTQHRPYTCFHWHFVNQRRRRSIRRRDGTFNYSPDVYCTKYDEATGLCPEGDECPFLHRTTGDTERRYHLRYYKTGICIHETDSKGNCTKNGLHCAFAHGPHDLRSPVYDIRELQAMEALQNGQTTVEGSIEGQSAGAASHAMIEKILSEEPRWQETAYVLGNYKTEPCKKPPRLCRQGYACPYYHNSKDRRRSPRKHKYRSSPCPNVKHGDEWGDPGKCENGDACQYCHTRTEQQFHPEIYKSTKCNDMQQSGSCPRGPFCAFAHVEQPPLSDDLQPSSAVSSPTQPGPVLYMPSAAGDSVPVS
Sequence	bound/input enrichment
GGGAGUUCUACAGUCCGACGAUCGGCCGGAAGGGAUAAAACCGCAGUCGCCGGCCUCGCGGGGCUCACGGCCUCGCCUCGGUAUCGCAGCGGGUCCUCUCUAUCUAGCUCCAGCCUCUCGCCUGCGCCCCACUCCCCGCGUCCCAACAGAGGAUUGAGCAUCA	0.23 ratio
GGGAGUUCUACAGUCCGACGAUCCUCAAUGUUACACCACUGGCAAGAAUAGUAGCAUUUGCUGACGCUGCUGUAGAACCUAUUGAUUUUCCAAUUGCUCCUGUAUAUGCUGCAUCUAUGGUUCUUAAAGAUGUGGGAUUGAAACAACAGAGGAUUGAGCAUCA	0.171 ratio
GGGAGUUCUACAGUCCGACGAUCCCAGAAUGAUUCUGGGCAUAUACUAAGAAGAGCAGGUAUGGAAAGAUCUAUUGUCAGGGAAUCUUAGAAUUCCCUACACGAGUGGGAGAAAGAUGUCCAAAUUCCUUACGCAGUGGUAUUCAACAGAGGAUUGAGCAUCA	0.261 ratio
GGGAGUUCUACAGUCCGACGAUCCAAGGCGGUUUCAGAGAAGUUCGGAAUGAGUAUGGGUCAAGAAUAGGAGGAAAUGAAGGGAUAGAUGUCCCCAUUCCAAGAUUUGCUGUUGGCAUUGUAAUAGGAAGAAAUGGAGAGAUGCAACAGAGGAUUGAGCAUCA	3.47 ratio
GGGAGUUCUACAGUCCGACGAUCGAGGUUGUUAAGGACAAAGCAGGACCUCAUAAGGAAAUCUAUCCCUAUGUCAUCCAGGAACUUAGACCAACUUUAAAUGAAUUGGGAAUCUCCACUCCAGAGGAGCUGGGCCUUGACAAACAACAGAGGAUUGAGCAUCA	0.211 ratio
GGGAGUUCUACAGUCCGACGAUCCCUGUUGGCAGAGCUGGGGUCCUGCUUUCUGAAAUCCUACACCUUCUAUGCAGACAAAUGAGCCAUAAGAAAGUAGGCGCCCUGUGGAGGGAGGCUGACCUCAGCUGGAAGGACUUUUUACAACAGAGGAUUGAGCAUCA	0.152 ratio
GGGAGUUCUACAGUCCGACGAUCGCAGGAGUCCGCCAGCAGGAGGGGGAGAGUCGGCUCAACCUGGUGCAGAGAAAUGUCAACGUGUUCAAGUUCAUCAUUCCUCAGAUCGUCAAGUACAGCCCUGACUGCACCAUCAUCGUGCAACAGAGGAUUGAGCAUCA	0.0815 ratio
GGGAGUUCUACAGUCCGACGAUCAUCCCCGUGGCUCCCCCAGCAGCCCUGACCCACCUGGCUCUCUGCUCAUGUCUACAAGAAUCUUCUAUCCUGUCCUGUGCCUUAAGGCAGGAAGAUCCCCUCCCACAGAAUAGCAGGGUUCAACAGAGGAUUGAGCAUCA	0.642 ratio
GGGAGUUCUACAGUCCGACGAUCGUCAACCGUGUUACUAUACUCUGUGACAAAUUUAGUGGCCAUCCCAAAGGGUUUGCAUAUAUAGAGUUCUCGGACAAAGAGUCAGUGAGGACGUCCCUGGCCUUAGAUGAGUCCCUGUUCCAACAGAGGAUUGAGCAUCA	0.838 ratio
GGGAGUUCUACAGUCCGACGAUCUUCUACGUGAAUAGGAUUUUGUGGCUGGCCAGAUACACUGCAUCAUCUUUUUCAUCAUUUUUAGUUCAACUUUUUCAAGUGGUUUUAAUGAAGCUCAGUUAUGAAUCAGAAAAUUACAAACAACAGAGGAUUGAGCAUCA	1.55 ratio
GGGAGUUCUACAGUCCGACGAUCCAAGAACCAAUAUACACUGCAAACAUGAGGCCGUAUACCAUCAAUCUGUGAAUAAGAACAGGAUGCUGGAAGAGAGUGAAGCAAUACUCGGGUUAGAUGGGGUAGACAUGUGGGCUAUAUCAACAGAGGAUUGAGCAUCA	0.367 ratio

Mixed results
Molecule	target	test	system	setting	how to read	measurement	result
PhoQ, residues 284 288 289 292 302 303 SLSLLA	PhoP, residues 12 14 15 18 19 LYHSL (Escherichia coli, UniProt P23836)	Sort-seq, item: YFP reporter	E. coli	PhoQ-PhoP variant library, together with: 10 µM Mg2+	relative to: high Mg2+ state, higher = stronger signaling	fold induction	17.9

A few entries again (sample 1):
Sequence	RBNS enrichment (R)
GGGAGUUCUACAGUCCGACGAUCAGGAAGCUAGGAAAAGGAAAGUGAAGGAAUGGUCUAAAGAAAUGACCAUUCACACUGAUUUUGUCUGGACAGUCUGGCCGCAGGUUAUUCAUAGAUUAUUCAGCCUUUGCUGGAAUUCUCGGGUGCCAA	0.248
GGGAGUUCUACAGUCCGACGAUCCUAUGCUCUUUAAUGGAGAAUCUGUUGUCGAAAGGAAGAUGGCCAGAAAUAAGAACUUCAGGACCACGUGGCUUUGCAUAUACAGAGCUUAACAAGCUUUGAGAAACUCAUGGAAUUCUCGGGUGCCAA	0.382
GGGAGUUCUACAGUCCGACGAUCUUACUGUUGUUUAGAAAUUUGCAAGGGCUUCUUUUCCGCAAAUGCCACCAGCAGAUUAUAAUUUUGUCAGCAAUGCUAUUAUCUCUAAUUAGUGCCACCAGACUAGACCUUGGAAUUCUCGGGUGCCAA	0.333
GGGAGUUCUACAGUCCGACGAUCUGACCCCAGGGCCUGGACCUGCAGGAUCAGGUUAGGGCGAGCGCUACCUCUCCAGCCUCAGCUCUCAGUUGCAGCCCUGCUGCUGCCUGCCUGGACUUGGCCCCUGCCACUGGAAUUCUCGGGUGCCAA	0.314
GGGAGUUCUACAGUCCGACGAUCUCUCACUGAGCUCCUCGCCCCAAAUAUCCCGGUGCUGCCCCUGCUGUCCAGGCUCCAGUGUGACAAUGGGUUGAGUCUCCAGGCCCUGGCCAGGACAUCCUGCUAUCAAUUGGAAUUCUCGGGUGCCAA	0.359
